{"data": "Assay results gathered from unrelated publications", "note": "Values joined by “and” are separate records of one study, mostly repeats; a detail may differ. ± gives the spread as reported."}
{"SMILES": "C=CC(=O)Nc1cc(Nc2nccc(-c3cn(C4CC4)c4ccccc34)n2)c(OC)cc1N(C)CCNC", "assay": "autosampler stability", "system": "rat plasma", "setting": "40 ng/mL, 4 h, 10 °C", "scale": "relative to: nominal concentration", "measurement": "relative error", "result": "2.1%"}
{"SMILES": "CCCCN1C(=O)c2cccc3c(NCCCCCCCCCCN4CCOCC4)ccc(c23)C1=O", "system": "DMF", "measurement": "fluorescence lifetime", "result": "10.2 ns"}
{"SMILES": "CN([O-])C(=O)CN1CCN(CC(=O)N(C)[O-])CCN(Cc2ccccn2)CC1.[89Zr+4]", "system": "mouse, blood", "setting": "intravenous, 1 h", "measurement": "tracer uptake", "result": "3.88 %ID/g"}
{"SMILES": "CCNCC#CCNc1ccnc2cc(Cl)ccc12", "assay": "refers to: compound as metabolite", "system": "mouse hepatocytes", "setting": "10 µM DAQ, 30 min", "scale": "higher = more metabolite formed", "measurement": "MS peak area", "result": "4.23e+06 a.u."}
{"SMILES": "COc1cccc(OC)c1-c1cc(C(=O)NC2(C(=O)O)C3CC4CC(C3)CC2C4)nn1-c1ccc(C(=O)N(C)CCCN(C)CCCN(C)C(=O)[C@H](CCCCNC(=O)[C@H](CC(C)C)NC(=O)C2OC2C(=O)O)NC(=O)CN2CCN(CC(=O)[O-])CCN(CC(=O)[O-])CCN(CC(=O)[O-])CC2)cc1C(C)C.[177Lu+3] (mixture of isomers)", "system": "mouse, HT-29 xenograft", "setting": "72 h post injection, biodistribution", "scale": "relative to: tumour over heart uptake", "measurement": "tumour-to-heart ratio", "result": 40.6}
{"SMILES": "O=C(OC(C(F)(F)F)C(F)(F)F)N1CCC(CNS(=O)(=O)c2ccc(Cl)cc2)CC1", "system": "CB17 SCID mice, male, brain", "setting": "oral, 30 mg/kg", "measurement": "Tlast", "result": "24 h"}
{"SMILES": "CN[C@H](CC(C)C)C(=O)N[C@H]1C(=O)N[C@@H](CC(N)=O)C(=O)N[C@H]2C(=O)N[C@H]3C(=O)N[C@H](C(=O)N[C@H](C(=O)N[C@H](CCCNC(=N)N)C(N)=O)c4cc(O)cc(O)c4-c4cc3ccc4O)[C@H](O)c3ccc(c(Cl)c3)Oc3cc2cc(c3O[C@@H]2O[C@H](CO)[C@@H](O)[C@H](O)[C@H]2O[C@H]2C[C@](C)(N)[C@H](O)[C@H](C)O2)Oc2ccc(cc2Cl)[C@H]1O", "system": "female CD-1 mouse, plasma", "setting": "intravenous, 50 mg/kg, single dose", "measurement": "Cmax", "result": "126 µg/mL"}
{"SMILES": "C=CC(=O)Nc1cc(Nc2nccc(-c3c[nH]c4ccccc34)n2)c(OC)cc1N(C)CCN(C)C", "assay": "storage stability", "system": "human dried blood spots", "setting": "72 h, on ice, low QC level", "measurement": "recovery", "result": "69.9%"}
{"SMILES": "OC1(C(F)(F)F)CCN(c2nc(Nc3ccnc(C(F)(F)F)c3)nc(-c3cccc(C(F)(F)F)n3)n2)C1 (stereo not shown)", "system": "monkey, plasma", "setting": "oral, 1 mg/kg", "measurement": "Tmax", "result": "5.33 ± 1.03 h"}
{"SMILES": "C=C(NC(=O)c1csc(-c2nc3c(cc2O)-c2nc(cs2)C(=O)NC(C(C)O)C(=O)NC(=C(C)OC)c2nc(cs2)C(=O)NC2c4nc(cs4)C(=O)NC(COC(=O)c4c5c6c(cccc6n4O)COC(=O)C(OC4CC(C)(O)C(N(C)C)C(C)O4)C2OC5)c2nc-3cs2)n1)C(N)=O (stereo not shown)", "system": "cynomolgus monkey, female, plasma", "setting": "intravenous infusion, 3 mg/kg single dose", "measurement": "clearance", "result": "1.87 mL/min/kg"}
{"SMILES": "C[N+](C)(CCOCCOCCOCCNC(=S)Nc1ccc(C[C@H]2CN(CC(=O)[O-])CCN(CC(=O)[O-])CCN2CC(=O)[O-])cc1)C[c-]1cccc1.[64Cu+2].[Fe+2].c1cc[cH-]c1", "assay": "pretargeted biodistribution", "system": "nude mouse, BxPC-3 xenograft tumour", "setting": "8 h post injection, 144 h lag time", "measurement": "tumour uptake", "result": "2.2 ± 1.1 %ID/g"}
{"SMILES": "Cc1cccc(Cn2ncc3c4cc(F)c(CN(C)C)cc4n(C)c3c2=O)n1", "system": "Dutch-belted rabbit, plasma", "setting": "intravitreal, 1 µM vitreous, 7.00 days", "measurement": "plasma concentration", "result": "not detected"}
{"SMILES": "Cc1cc(NC(=O)[C@H](O)c2cc(F)cc(F)c2)ccc1-c1cnc(N)c(C(=O)NC(C)C)c1", "system": "athymic nude Foxn1nu mouse, female, plasma", "setting": "oral, 3 mg/kg", "measurement": "dose-normalised Cmax", "result": "124 ng·kg/mL/mg"}
{"SMILES": "Cc1n[nH]c(C)c1CCCOc1cc(C(=O)NCCCCC(NC(=O)CN2CCN(CC(=O)[O-])CCN(CC(=O)[O-])CCN(CC(=O)[O-])CC2)C(=O)NCC2CCC(C(=O)NC(Cc3ccc4ccccc4c3)C(=O)NCCCCC(NC(=O)NC(CCC(=O)O)C(=O)O)C(=O)O)CC2)ccc1F.[68Ga+3] (stereo not shown)", "system": "BALB/c mouse, blood", "setting": "intravenous", "measurement": "distribution half-life", "result": "1.12 min"}
{"SMILES": "CN1C(=O)[C@@H](Cc2ccc(O)c(I)c2)NC(=O)CNC(=O)[C@H](Cc2ccc3ccccc3c2)NC(=O)[C@H](CCCNC(=N)N)NC(=O)[C@H]1CCCNC(=O)c1ccc(CNC(=O)CN2CCN(CC(=O)O)CCN(CC(=O)O)CCN(CC(=O)O)CC2)cc1 [lutetium-177 labelled]", "assay": "2", "system": "human, extrapolated from mouse, red marrow", "measurement": "total absorbed dose", "result": "0.099 mGy/MBq"}
{"SMILES": "O=C(NS(=O)(=O)c1cccs1)c1cc2ccccc2n1Cc1ccc(Br)c2ccccc12", "system": "KM mouse, chronic hyperuricaemia model", "setting": "dose not given, day 5", "measurement": "body weight", "result": "28 g and 24.9 g and 29.2 g and 28.4 g and 27 g and 26.8 g"}
{"SMILES": "CCCC[C@H](NC(=O)CNC(=O)CNC(=O)[C@H](CCCCNC(=O)[C@H](CC(=O)O)NC(=O)C(C)c1ccc(CC(C)C)cc1)NC(=O)CN1CCN(CC(=O)O)CCN(CC(=O)O)CCN(CC(=O)O)CC1)C(=O)N[C@H]1CC(=O)NCCCC[C@@H](C(N)=O)NC(=O)[C@H](Cc2c[nH]c3ccccc23)NC(=O)[C@H](CCCNC(=N)N)NC(=O)[C@@H](Cc2ccccc2)NC(=O)[C@H](Cc2c[nH]cn2)NC1=O (stereo partly shown) [lutetium-177 labelled]", "system": "C57 mice, tumour", "setting": "intravenous, 0.037 MBq, 24 h", "scale": "relative to: kidney", "measurement": "tumour-to-tissue ratio", "result": 1.46}
{"SMILES": "O=C([O-])CN1CCN(CC(=O)[O-])CCN(CC(CCCc2ccccc2[N+](=O)[O-])N(CC(=O)[O-])CC(=O)[O-])CC1.[90Y+3] (stereo not shown)", "assay": "HPLC", "system": "human serum", "setting": "264 h, pH 7, 37 °C", "measurement": "intact radiolabelled complex", "result": "100%"}
{"SMILES": "COc1ccnc(C(=O)N[C@H]2COC(=O)[C@H](Cc3ccccc3)[C@@H](OC(=O)C(C)C)[C@H](C)OC2=O)c1O", "system": "Swiss Lake sand sediment, aerobic dark", "setting": "20 °C", "measurement": "DT50 whole system", "result": "2.37 days"}
{"SMILES": "O=C(Nc1cnccc1-c1ccc([18F])cc1)c1ccnc(NC(=O)C2CC2)c1", "assay": "ex vivo gamma counting", "system": "FVB/NJ mice, both sexes, heart", "setting": "intravenous, 120 min, mean, P-gp inhibitor pretreatment, together with: tariquidar 15 mg/kg iv", "measurement": "SUV", "result": 0.34}
{"SMILES": "Cc1ccc(CN2C(=O)/C(=N\\c3ccc(Cl)cc3Br)c3ccccc32)cc1", "system": "mouse, blood", "setting": "150 mg/kg", "measurement": "haematocrit", "result": "37.6 ± 0.91%"}
{"SMILES": "CC(C)(F)CC(NC(c1ccc(-c2ccc(S(C)(=O)=O)cc2)cc1)C(F)(F)F)C(=O)NCC#N (stereo not shown)", "system": "MES buffer", "setting": "100 µM, 23 h, pH 5.5, 37 °C, together with: cysteine 10 mM", "measurement": "cysteine adduct formation", "result": "5%"}
{"SMILES": "CN1CCC[C@]1(C)/C=C/S(=O)(=O)NC(=O)Nc1c2c(cc3c1C(O)CC3)CCC2 (stereo partly shown)", "system": "human, plasma", "setting": "oral, 50 mg twice daily of parent drug, day 14, metabolite of dosed drug", "measurement": "Tmax at first steady-state dose", "result": "3 h"}
{"SMILES": "Cc1cc(-c2ccc(C(=O)[C@@H]3CCCC[C@H]3C(=O)Nc3cnn4c3C(=O)NCC4)cc2)[nH]n1", "system": "human, faeces", "setting": "oral, 200 mg, 288-312 h", "scale": "relative to: dose", "measurement": "radioactivity recovery per interval", "result": "0.06%"}
{"SMILES": "O=C(CCc1cn(CCOCCOCCOCC[18F])nn1)Nc1ccc(-c2nnc(-c3ccccn3)nn2)nc1", "assay": "PET imaging", "system": "BALB/c nude mouse, LS174T xenograft, tumour, heart as blood", "setting": "intravenous, 1 h, together with: CC49-TCO 72 h before", "scale": "relative to: tumour over heart", "measurement": "tumour to blood ratio", "result": 0.59}
{"SMILES": "CC[C@H](C)[C@@H]1NC(=O)[C@H](Cc2ccc(O)cc2)NC(=O)CCCSC[C@@H](C(=O)N(CC(=O)N[C@@H](CC(C)C)C(=O)NCC(N)=O)Cc2ccc(F)cc2)NC(=O)[C@H](CC(N)=O)NC(=O)[C@H](CCC(N)=O)NC1=O", "system": "human", "setting": "intranasal, 5 µg single dose", "measurement": "serious adverse events", "result": "0%"}
{"SMILES": "C/C(N)=N/C(=N\\S(=O)(=O)c1ccc(C(F)(F)F)cc1)N1C[C@H](c2ccccc2)C(c2ccc(Cl)cc2)=N1", "system": "monkey, plasma", "measurement": "fraction unbound", "result": 0.0008}
{"SMILES": "COC1CN([C@H]2CC[C@H]([C@@]3(C)Oc4c(Cl)cc(C(=O)NCc5c(SC)cc(C)[nH]c5=O)c(C)c4O3)CC2)C1", "system": "female CB17 SCID mice, KARPAS-422 xenograft, plasma", "setting": "25 mg/kg, day 1", "measurement": "AUC(0-t)", "result": "1990 ng·h/mL"}
{"note": "For quick reference, copied from above:"}
{"SMILES": "CCNCC#CCNc1ccnc2cc(Cl)ccc12", "assay": "refers to: compound as metabolite", "system": "mouse hepatocytes", "setting": "10 µM DAQ, 30 min", "scale": "higher = more metabolite formed", "measurement": "MS peak area", "result": "4.23e+06 a.u."}
{"SMILES": "CN[C@H](CC(C)C)C(=O)N[C@H]1C(=O)N[C@@H](CC(N)=O)C(=O)N[C@H]2C(=O)N[C@H]3C(=O)N[C@H](C(=O)N[C@H](C(=O)N[C@H](CCCNC(=N)N)C(N)=O)c4cc(O)cc(O)c4-c4cc3ccc4O)[C@H](O)c3ccc(c(Cl)c3)Oc3cc2cc(c3O[C@@H]2O[C@H](CO)[C@@H](O)[C@H](O)[C@H]2O[C@H]2C[C@](C)(N)[C@H](O)[C@H](C)O2)Oc2ccc(cc2Cl)[C@H]1O", "system": "female CD-1 mouse, plasma", "setting": "intravenous, 50 mg/kg, single dose", "measurement": "Cmax", "result": "126 µg/mL"}
